Values quoted from earlier work as cited in several papers.
Protocols differ between the studies behind these lines.

| SMILES | target or system | assay | system | conditions | how to read | endpoint | result |
| --- | --- | --- | --- | --- | --- | --- | --- |
| C=C[C@@H]1C[C@]1(NC(=O)[C@@H]1C[C@@H](Oc2cc(-c3ccccc3)nc3cc(OC)ccc23)CN1C(=O)[C@@H](NC(=O)OC(C)(C)C)C(C)(C)C)C(=O)NS(=O)(=O)C1CC1 |  |  | rat | oral, 20 mg/kg oral, 5 mg/kg iv |  | oral bioavailability | 9% |
| O=C1c2ccccc2-c2c1c1ccc([N+](=O)[O-])cc1c(=O)n2C[C@H](O)[C@@H](O)[C@H](O)[C@H](O)CO | HCT-116 | cell growth | colon cancer |  |  | GI50 | 5.08 µM |
| Cc1ccccc1-c1cc(N2CCNCC2)ncc1N(C)C(=O)C(C)(C)c1cc(C(F)(F)F)cc(C(F)(F)F)c1 |  |  | healthy volunteers, plasma | oral, dose not given, netupitant-palonosetron, fasted |  | Tmax | 13.8 h |
| O=C1c2ccccc2-c2c1c1ccc([N+](=O)[O-])cc1c(=O)n2C[C@H](O)CO | MCF7 | cell growth |  | breast cancer panel |  | GI50 | 0.016 µM |
| CC(=O)O[C@H]1C2=C(C(=O)C(OC(=O)c3ccccc3)=C(C(C)C)C2=O)[C@@]2(C)CCCC(C)(C)[C@@H]2[C@@H]1OC(=O)c1ccccc1 | MOLT-3 |  |  |  |  | GI50 | 5 to 10 µM |
| CN1CCN(c2cc(-c3ccccc3CO)c(N(C)C(=O)C(C)(C)c3cc(C(F)(F)F)cc(C(F)(F)F)c3)cn2)CC1 |  |  | healthy volunteers, plasma | oral, dose not given, netupitant-palonosetron, fasted |  | Tmax | 13.9 h |
| CCC(=O)O[C@@H]1[C@@H](OC(C)=O)C2=C(C(=O)C(O)=C(C(C)C)C2=O)[C@@]2(C)CCCC(C)(C)[C@H]12 | MEL1 |  |  |  |  | GI50 | 5 to 10 µM |
| COCCOCCOCCOCCC(=O)NCc1cc(CNC(=O)CCOCCOCCOCCOC)cc(-c2cc3cc4nc(c(OC)c5[nH]c(cc6nc(cc2[nH]3)CC6(C)C)cc5-c2cc(CNC(=O)CCOCCOCCOCCOC)cc(CNC(=O)CCOCCOCCOCCOC)c2)CC4(C)C)c1 |  |  | DMF | room temperature |  | kic^−1 | 9 ns |
| CCC(=O)OC1=C(C(C)C)C(=O)C2=C(C1=O)[C@@]1(C)CCCC(C)(C)[C@@H]1[C@H](OC(=O)CC)[C@H]2OC(C)=O | MOLT-3 |  |  |  |  | GI50 | 10 to 30 µM |
| Cc1ccccc1-c1cc(N2CC[N+](C)([O-])CC2)ncc1N(C)C(=O)C(C)(C)c1cc(C(F)(F)F)cc(C(F)(F)F)c1 |  |  | systemic circulation |  | reference: metabolite over netupitant | exposure ratio | 14% |

Excerpt of the above:
| SMILES | target or system | assay | system | conditions | how to read | endpoint | result |
| --- | --- | --- | --- | --- | --- | --- | --- |
| C=C[C@@H]1C[C@]1(NC(=O)[C@@H]1C[C@@H](Oc2cc(-c3ccccc3)nc3cc(OC)ccc23)CN1C(=O)[C@@H](NC(=O)OC(C)(C)C)C(C)(C)C)C(=O)NS(=O)(=O)C1CC1 |  |  | rat | oral, 20 mg/kg oral, 5 mg/kg iv |  | oral bioavailability | 9% |
